Published values from different studies.
Numbered parts are unrelated; each lists some results of a single study.

Series 1 — method: protein-binding microarray; molecule type: double-stranded DNA, one strand shown; matrix: in vitro; concentration: 2540 nM top; notes: 60-bp whole probe; together with: salmon DNA 0.4 mg/ml; relative to: random background probes; direction: higher = stronger binding; constant ends, left off below: GCCTAGCAC … GTCTTGATTCGCTTGACGCTGCTG
Target: Interferon regulatory factor 3, full length, phosphomimetic (IRF3, Homo sapiens, UniProt Q14653, residues 1-427, S386D/S396D/S398D/S402D/T404D/S405D)
Construct (chain): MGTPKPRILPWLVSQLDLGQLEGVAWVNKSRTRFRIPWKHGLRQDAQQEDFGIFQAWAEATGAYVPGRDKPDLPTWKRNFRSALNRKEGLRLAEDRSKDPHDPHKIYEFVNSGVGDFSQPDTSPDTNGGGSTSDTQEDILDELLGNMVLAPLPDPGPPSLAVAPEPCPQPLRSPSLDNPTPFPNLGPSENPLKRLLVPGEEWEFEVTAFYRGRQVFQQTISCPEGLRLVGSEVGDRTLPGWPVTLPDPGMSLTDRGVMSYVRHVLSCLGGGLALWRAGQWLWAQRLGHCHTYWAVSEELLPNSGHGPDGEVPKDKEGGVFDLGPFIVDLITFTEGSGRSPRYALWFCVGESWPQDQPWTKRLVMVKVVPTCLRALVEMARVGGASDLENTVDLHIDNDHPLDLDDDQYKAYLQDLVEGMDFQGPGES
Under “fitted relative affinity”, `TTAGGGCTGGGGACTGGGTTAGTGCTA` is recorded as -1.5 z-score.
For `TTAGATCCCAGACTGGATTAGTGCTAG`, “fitted relative affinity” read 0.39 z-score.
For `TTAGGTCTACTTCTCCTTTAGTGCTAG`, “fitted relative affinity” read 0.793 z-score.
Under “fitted relative affinity”, `GTCATTTACATTTTAGTAGTGTGCTAG` is recorded as 1.68 z-score.
`TTACGTCTCGGTTTCGGTTAGTGCTAG`: “fitted relative affinity” 5.25 z-score.
For `GACGGTCTCCTACTGCTTACGTGCTAG`, “fitted relative affinity” read 1.02 z-score.
`GACGGTCTCCTACCGCTGACGTGCTAG` — result for “fitted relative affinity”: 0.661 z-score.
For `GACGATAACAGTATCGAGACGTGCTAG`, “fitted relative affinity” read 0.151 z-score.
For `GAGGAACTGGGGACTGGAGACGTGCTA`, “fitted relative affinity” read -0.989 z-score.

Series 2 — method: universal PBM; molecule type: double-stranded DNA, one strand shown; matrix: in vitro; concentration: not given; direction: higher = stronger binding
Target: Sal-like protein 4, full length isoform B (SALL4, Homo sapiens, UniProt Q9UJQ4-2, residues 1-616)
Notes: 8-mer, flanks averaged, mean of replicates
The E-score of `AGCACGTA` is reported as -0.0131.
`CCTTATCC` has an E-score of -0.112.
`AACCGCCC` gave an E-score of -0.313.
`CACAAGGA` gave an E-score of 0.0101.
`GTATAGTA` has an E-score of 0.194.
The E-score of `CAACGCGC` is reported as -0.111.
With `AAAGAAAG` the E-score was 0.154.
`ATCGCTCC` gave an E-score of -0.155.
The E-score of `AGCGCTAC` is reported as -0.0208.
With `AAAAAGGC` the E-score was 0.153.
`CTTCCCTC` gave an E-score of -0.0528.
For `AGAATGCC`, the E-score was 0.0533.
`CCGAGCGG` has an E-score of -0.357.
`ACCTGATG` gave an E-score of -0.107.
With `GCATACAA` the E-score was 0.138.
`AAATACTT` has an E-score of 0.273.
`CGCTGTGA` has an E-score of -0.164.
`GTCTTAGA` has an E-score of 0.0255.
`GAGCTTCA` gave an E-score of -0.0361.

Series 3 — method: RNA Bind-n-Seq; molecule type: RNA; matrix: in vitro; concentration: 200 nM; notes: whole 134-nt RNA, ends assumed; together with: 150 mM LiCl; relative to: input library; direction: higher = stronger binding; library: 7-deaza-guanosine replaces G
Target: Fragile X messenger ribonucleoprotein 1, C-terminal low-complexity region (Fmr1, Mus musculus, UniProt P35922)
The log2 enrichment of `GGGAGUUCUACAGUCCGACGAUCCCUCAAGUCCUGUGCUACACAUCGUAUGUACCGAAUCGGUGGGGUGGGGUGGGAAAGUAUUAUGUUACGCCGUUCGGAUCUGCACUUCCAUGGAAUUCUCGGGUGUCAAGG` is reported as -0.859.
With `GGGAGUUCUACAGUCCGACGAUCAGUCCUGUGCUACACAUCGUAUGUACCGAAUCGGCCCCCGGGGCCCCCGGCCCCCGGAAAGUAUUAUGUUACGCCGUUCGGAUCUGCACUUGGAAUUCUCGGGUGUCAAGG` the log2 enrichment was -1.92.
The log2 enrichment of `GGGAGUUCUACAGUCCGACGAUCAGAGAAAAGGAACAGUUCCGUAAGCUCUUUAUUGGUGGCUUAAGCUUUGAAACCACAGAAGAAAGUUUGAGGAACUACUACGAACAAUGGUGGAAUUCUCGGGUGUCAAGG` is reported as -3.23.
The log2 enrichment of `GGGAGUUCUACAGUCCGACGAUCUGGCCCCGGUGGCAUGCGGGGAGGAAGAGGUGGCCUCAUGGAUCGUGGUGGUCCCGGUGGAAUGUUCAGAGGUGGCCGUGGUGGAGACAGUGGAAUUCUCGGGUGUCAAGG` is reported as -0.46.
`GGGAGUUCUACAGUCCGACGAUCAAGUCCUGUGCUACACAUCGUAUGUACCGAAUCGGGAAAAAAAGGGUUUGGGAGGGAAAGUAUUAUGUUACGCCGUUCGGAUCUGCACUUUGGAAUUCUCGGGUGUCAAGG` has a log2 enrichment of -1.69.
For `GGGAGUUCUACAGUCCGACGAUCUGGCCCUGGUGGCAUGCGGGGAGGAAGAAGUGGCCUCAUGGAUCGUGGUGGUCCCGGUGGAAUGUUCAGAGGUGGCCGUGGUGGAGACAGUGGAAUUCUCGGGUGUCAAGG`, the log2 enrichment was -0.233.
`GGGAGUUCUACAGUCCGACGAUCUAAUUUUAGAGGAGGAUCUGAUGGAUAUGGCAGUGGACGUGGAUUUGGGGAUGGCUAUAAUGGGUAUGGAGGAGGACCUGGAGGUGGCAAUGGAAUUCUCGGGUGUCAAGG` has a log2 enrichment of 0.248.
With `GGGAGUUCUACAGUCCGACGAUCUAACUUUAGAGGAGGAUCUGAUGGAUAUGGCAGUGUACGUGGAUUUGGGGAUGGCUAUAAUGGGUAUGGAGGAGGACCUGGAGGUGGCAAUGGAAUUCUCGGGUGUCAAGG` the log2 enrichment was 0.547.

Series 4 — method: RNA Bind-n-Seq; molecule type: RNA; matrix: in vitro; concentration: 365 nM; relative to: no-protein control; direction: higher = stronger binding
Target: RNA binding protein fox-1 homolog 2, RRM domain, GST-SBP tag (RBFOX2, Homo sapiens, UniProt O43251-10, residues 100-194)
Notes: natural RNA segment, single round, ends assumed
Residues (chain): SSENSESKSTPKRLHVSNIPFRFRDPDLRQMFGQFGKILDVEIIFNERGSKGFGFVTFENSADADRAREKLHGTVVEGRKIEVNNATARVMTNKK
`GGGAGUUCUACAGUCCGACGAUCGAGAAUAUAUAUUGUACUGUAGUAAUUUUGUAUUUACAUUUGUAUGAUGUGACAUAAUAGAUGUGAAUGUUAAUCACUGCUUGACUAUGUUAAUAAAGUUGUUUAACUAUUGGAAUUCUCGGGUGCCAA` — result for “RBNS enrichment (R)”: 0.379.
`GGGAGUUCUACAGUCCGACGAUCCCAGCUCAGGGGGGCACUUUUAAGGAUCUAGAAAACAGAAAUUAAGGAUCUCAUAGUUAUUUUAUUAGGCCAGCCUUAUUCCAUGUCGGCAAGAGGUUUCUUGUGGAAAUUGGAAUUCUCGGGUGCCAA` — result for “RBNS enrichment (R)”: 0.814.
Under “RBNS enrichment (R)”, `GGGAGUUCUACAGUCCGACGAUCCUCCAUGGAUUUUCUUCCCUGUAAGUGCCGGGCCCCUCACCCCAGCUGACAGGCUGUUGCUGUGCCUGCUCACACCUGCUCCUGCAGGCACACUGGGCUAGGGACGAGGAUGGAAUUCUCGGGUGCCAA` is recorded as 0.239.
Under “RBNS enrichment (R)”, `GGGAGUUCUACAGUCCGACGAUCAGGGUCAGAAGUACCUCACAGUGGUUGUGGACAUGGAAGAGUUUUGUCAACACAACACUUUGUCCCCGCUCCGGGAGAUGAGUCAGAUGGUGGCUUGAGUUGUCACUUGGUGGAAUUCUCGGGUGCCAA` is recorded as 0.317.
Under “RBNS enrichment (R)”, `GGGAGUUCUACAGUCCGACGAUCCGCCCGUGCCUCCAGGGGCCAAGAGGAUGAUGUCGUGGCCUCCAUUCUCGUUUCUAUGCAGCCCCAUAGUCCAAGGACACCCAGUCCACAUCUACCAUAUAGCAAGUUUAUGGAAUUCUCGGGUGCCAA` is recorded as 0.603.
`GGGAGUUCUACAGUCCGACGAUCCCCCCAGCUCCACUGGCCCAAGUCUGAGCCUGGGGCCCUUGCUUUGAGGGGCCAGUCCGAGUUGGAUGGGACUGCCCUCAAGGAACAAGGCUAAUGUGUGUGUGUAUGUUUGGAAUUCUCGGGUGCCAA`: “RBNS enrichment (R)” 1.91.
`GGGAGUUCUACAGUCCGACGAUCGCUGAAAGGCCAUGCAAACACAACAAACUAAUAACUCAGUCCCAAAGCACCCUGCAGCCCUGCAGACACCCCCCCCCUCCAAGAGUGGGAGGCAGGGACCACAGAACUGUUGGAAUUCUCGGGUGCCAA` — result for “RBNS enrichment (R)”: 0.298.
`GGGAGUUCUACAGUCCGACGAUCUCUAUAUGGACACAACAGUAAGAAGAAUGGGGCCUCGUCCCUGUCGACUUGAAUAUUAUCCCUAUGUAUUGCAUGAGAGGGGUCUCCCUCAUUCCAUCAGAGUAAUACACUGGAAUUCUCGGGUGCCAA` — result for “RBNS enrichment (R)”: 0.913.

For quick reference, copied from above (series 2):
`AAATACTT` has an E-score of 0.273.
`ATCGCTCC` gave an E-score of -0.155.
`CACAAGGA` gave an E-score of 0.0101.
The E-score of `CAACGCGC` is reported as -0.111.
